Published values of several laboratories.
Every numbered part comes from another study and shows a few of its results, in no order. “And” joins repeats or separate records; there may be more than shown.
Sequence of UniProt Q9HAZ1 (whole entry, looked up): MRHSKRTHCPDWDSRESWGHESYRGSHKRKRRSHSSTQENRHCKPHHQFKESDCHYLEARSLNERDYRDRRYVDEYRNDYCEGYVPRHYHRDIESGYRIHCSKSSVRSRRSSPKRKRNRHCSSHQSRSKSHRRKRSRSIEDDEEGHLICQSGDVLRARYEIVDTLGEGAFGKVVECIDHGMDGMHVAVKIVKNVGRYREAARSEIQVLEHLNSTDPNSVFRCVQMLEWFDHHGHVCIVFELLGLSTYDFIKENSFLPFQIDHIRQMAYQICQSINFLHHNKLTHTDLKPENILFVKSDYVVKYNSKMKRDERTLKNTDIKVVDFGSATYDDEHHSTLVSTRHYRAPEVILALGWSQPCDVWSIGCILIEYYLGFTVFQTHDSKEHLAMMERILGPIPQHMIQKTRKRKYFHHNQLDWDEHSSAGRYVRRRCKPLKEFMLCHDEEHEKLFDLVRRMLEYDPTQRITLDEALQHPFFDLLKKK
Sequence of UniProt P21802 (whole entry, looked up): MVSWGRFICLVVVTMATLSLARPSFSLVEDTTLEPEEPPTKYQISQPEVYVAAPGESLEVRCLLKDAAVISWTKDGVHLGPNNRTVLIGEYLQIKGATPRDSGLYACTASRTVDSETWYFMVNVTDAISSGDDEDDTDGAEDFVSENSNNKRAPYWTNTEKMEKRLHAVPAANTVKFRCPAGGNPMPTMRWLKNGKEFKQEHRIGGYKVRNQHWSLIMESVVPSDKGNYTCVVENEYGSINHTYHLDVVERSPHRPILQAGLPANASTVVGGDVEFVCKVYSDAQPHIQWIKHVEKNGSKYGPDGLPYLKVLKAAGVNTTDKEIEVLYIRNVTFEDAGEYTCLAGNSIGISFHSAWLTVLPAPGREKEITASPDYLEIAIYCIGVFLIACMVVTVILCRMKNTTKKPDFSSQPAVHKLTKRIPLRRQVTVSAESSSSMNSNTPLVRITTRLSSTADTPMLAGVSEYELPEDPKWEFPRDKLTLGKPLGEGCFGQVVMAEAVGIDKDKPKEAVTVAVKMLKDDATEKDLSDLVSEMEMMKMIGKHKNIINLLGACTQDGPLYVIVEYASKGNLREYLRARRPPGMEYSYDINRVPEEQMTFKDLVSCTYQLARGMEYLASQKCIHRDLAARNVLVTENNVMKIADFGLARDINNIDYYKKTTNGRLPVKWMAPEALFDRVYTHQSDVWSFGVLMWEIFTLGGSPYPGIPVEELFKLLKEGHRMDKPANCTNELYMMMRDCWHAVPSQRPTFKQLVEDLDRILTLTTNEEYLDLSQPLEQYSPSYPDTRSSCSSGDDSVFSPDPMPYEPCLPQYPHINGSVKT
Sequence of UniProt P22455 (whole entry, looked up): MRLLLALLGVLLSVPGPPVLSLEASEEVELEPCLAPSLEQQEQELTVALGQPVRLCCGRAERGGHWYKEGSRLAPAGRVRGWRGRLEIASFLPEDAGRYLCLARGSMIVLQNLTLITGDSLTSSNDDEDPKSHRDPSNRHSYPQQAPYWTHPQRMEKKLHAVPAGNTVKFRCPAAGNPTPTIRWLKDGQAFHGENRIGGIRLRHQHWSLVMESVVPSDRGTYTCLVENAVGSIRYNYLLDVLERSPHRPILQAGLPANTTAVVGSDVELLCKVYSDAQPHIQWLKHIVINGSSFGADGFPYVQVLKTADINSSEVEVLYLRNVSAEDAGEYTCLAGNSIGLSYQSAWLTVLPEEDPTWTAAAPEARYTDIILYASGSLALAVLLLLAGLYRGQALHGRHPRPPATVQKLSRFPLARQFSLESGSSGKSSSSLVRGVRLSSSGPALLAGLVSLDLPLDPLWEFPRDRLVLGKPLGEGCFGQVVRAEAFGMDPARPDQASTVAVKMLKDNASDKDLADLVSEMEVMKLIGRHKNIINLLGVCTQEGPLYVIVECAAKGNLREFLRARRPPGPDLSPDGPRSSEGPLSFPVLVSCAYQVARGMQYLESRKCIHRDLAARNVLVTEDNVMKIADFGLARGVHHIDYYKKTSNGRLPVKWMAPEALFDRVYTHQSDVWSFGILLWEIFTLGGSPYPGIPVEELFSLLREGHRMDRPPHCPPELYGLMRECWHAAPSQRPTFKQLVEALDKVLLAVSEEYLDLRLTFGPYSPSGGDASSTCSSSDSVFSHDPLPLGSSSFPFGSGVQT
Sequence of UniProt P42336 (whole entry, unmodified, looked up): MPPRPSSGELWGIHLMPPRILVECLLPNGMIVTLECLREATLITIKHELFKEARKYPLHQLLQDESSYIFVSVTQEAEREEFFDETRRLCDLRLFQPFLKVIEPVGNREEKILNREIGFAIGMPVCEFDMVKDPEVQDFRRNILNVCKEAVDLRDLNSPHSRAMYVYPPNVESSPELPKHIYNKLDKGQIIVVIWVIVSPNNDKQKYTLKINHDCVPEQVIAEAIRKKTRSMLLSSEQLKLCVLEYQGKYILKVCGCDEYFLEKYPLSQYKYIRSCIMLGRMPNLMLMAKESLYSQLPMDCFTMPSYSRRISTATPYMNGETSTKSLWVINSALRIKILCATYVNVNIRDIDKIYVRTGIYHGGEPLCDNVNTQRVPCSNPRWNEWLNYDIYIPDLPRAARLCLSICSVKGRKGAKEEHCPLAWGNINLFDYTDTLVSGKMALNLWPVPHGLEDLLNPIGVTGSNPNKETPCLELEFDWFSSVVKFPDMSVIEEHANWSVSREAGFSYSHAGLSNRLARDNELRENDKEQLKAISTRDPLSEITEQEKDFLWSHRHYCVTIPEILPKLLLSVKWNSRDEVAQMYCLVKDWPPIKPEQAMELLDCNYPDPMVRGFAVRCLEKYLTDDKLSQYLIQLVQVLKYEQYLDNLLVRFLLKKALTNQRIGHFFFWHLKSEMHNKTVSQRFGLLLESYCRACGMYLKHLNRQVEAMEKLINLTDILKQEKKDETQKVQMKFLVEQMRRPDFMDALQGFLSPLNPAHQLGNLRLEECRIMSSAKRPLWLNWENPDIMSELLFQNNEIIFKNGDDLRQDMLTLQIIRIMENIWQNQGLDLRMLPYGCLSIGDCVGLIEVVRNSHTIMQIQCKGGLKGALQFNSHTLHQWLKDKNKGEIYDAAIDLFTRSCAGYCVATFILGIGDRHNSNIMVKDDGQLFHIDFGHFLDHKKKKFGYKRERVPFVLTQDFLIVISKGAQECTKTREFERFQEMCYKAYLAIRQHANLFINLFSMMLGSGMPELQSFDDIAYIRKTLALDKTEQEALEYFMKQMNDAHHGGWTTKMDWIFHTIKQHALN
Sequence of UniProt Q7L7X3 (whole entry, looked up): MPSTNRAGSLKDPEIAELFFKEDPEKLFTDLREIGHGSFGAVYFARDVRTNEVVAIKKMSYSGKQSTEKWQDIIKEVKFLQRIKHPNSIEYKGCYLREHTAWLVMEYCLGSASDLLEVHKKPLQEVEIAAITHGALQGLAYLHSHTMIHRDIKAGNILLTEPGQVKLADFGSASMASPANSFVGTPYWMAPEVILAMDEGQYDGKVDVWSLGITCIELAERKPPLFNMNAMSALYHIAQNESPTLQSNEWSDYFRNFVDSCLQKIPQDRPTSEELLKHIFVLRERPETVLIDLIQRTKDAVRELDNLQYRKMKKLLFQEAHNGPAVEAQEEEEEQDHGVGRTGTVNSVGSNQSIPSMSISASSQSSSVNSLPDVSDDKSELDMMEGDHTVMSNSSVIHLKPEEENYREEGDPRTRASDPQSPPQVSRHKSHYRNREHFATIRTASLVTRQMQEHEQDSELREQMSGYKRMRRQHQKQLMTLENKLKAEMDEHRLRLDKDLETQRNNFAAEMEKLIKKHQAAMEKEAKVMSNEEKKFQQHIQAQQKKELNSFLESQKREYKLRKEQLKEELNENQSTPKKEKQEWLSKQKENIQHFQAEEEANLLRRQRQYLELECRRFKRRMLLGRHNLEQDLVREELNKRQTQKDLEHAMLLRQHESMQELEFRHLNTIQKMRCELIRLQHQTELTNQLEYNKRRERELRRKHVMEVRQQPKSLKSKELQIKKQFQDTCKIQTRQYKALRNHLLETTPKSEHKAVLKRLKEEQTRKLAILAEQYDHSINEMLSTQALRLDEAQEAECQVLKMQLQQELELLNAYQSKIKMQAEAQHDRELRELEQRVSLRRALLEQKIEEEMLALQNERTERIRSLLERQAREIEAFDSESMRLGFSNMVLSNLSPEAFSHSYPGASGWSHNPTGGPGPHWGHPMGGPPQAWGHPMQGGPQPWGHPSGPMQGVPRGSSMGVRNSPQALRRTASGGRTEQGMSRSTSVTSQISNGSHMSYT

Series 1 — observed: enzyme activity; mode: inhibitor; concentration: 0.5 µM; baseline: control
Target: NT-3 growth factor receptor (NTRK3, Homo sapiens, UniProt Q16288)
Sequence of UniProt Q16288 (whole entry, looked up): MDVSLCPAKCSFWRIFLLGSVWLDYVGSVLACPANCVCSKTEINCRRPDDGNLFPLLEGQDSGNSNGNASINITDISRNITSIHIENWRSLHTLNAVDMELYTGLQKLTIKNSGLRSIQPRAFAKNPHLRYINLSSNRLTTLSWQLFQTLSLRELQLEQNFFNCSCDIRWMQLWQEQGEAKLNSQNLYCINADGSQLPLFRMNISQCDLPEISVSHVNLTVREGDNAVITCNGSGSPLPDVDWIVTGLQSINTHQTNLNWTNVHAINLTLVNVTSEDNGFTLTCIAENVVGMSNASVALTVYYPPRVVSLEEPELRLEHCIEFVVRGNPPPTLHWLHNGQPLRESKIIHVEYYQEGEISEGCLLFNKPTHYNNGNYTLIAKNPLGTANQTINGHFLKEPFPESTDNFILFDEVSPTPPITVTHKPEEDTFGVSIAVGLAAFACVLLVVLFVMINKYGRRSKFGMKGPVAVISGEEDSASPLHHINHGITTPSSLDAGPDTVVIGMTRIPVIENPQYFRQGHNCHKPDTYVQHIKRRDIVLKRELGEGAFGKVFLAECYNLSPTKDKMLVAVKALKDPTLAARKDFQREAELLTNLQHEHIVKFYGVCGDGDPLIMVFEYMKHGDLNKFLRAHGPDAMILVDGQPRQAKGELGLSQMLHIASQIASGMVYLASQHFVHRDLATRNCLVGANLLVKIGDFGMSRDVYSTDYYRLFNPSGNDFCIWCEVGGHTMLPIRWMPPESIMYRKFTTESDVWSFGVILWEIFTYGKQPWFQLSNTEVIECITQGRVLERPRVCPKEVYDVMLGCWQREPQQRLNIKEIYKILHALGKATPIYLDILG
Structure (SMILES)	remaining activity
O=C(Nc1cccc(Nc2nccc(Nc3cccc(C(F)(F)F)c3)n2)c1)C1CC1	77.3%
CN(C)C[C@H]1CCn2c(c(C3=C(c4cn(C)c5ccccc45)C(=O)NC3=O)c3ccccc32)C1	75%
CCN(CC)C(=O)c1ccc(Nc2nc(OCC3CCCCC3)c3[nH]cnc3n2)cc1	32.3%
CN([C@@H](Cc1ccc(OS(=O)(=O)c2cccc3cnccc23)cc1)C(=O)N1CCN(c2ccccc2)CC1)S(=O)(=O)c1cccc2cnccc12	97.5%
c1ccc(-c2[nH]ncc2-c2ccnc3ccccc23)nc1	92.7%
O=c1cc(-c2cccc3c2Sc2ccccc2S3)oc(N2CCOCC2)c1	99.7%
Cc1cc2ncc(-c3ccccc3)nc2cc1C	88.2%
Ic1cccc(CSc2nnc(-c3ccncc3)o2)c1	104%
CCOc1nc(NC(=O)Cc2cc(OC)ccc2OC)cc(N)c1C#N	102%
Nc1cccc(-c2cc3c(Oc4cccc(O)c4)ncnc3[nH]2)c1	63.3%
Cn1nc2c3c(cccc31)C(=O)c1ccccc1-2	71.6%
COc1cc2ncnc(Nc3cccc(Cl)c3)c2cc1OC	86.3%
COc1cc2c(cc1OC)-c1[nH]nc(Nc3cccc(F)c3)c1C2	72.6%
Cc1nc2cc3nc(-c4cccs4)cnc3cc2n1C	59.9%
O=C1c2ccccc2-c2n[nH]c3cccc1c23	27.3%
O=C1C(Cl)=C(N2C(=O)CCC2=O)C(=O)c2ccccc21	98.6%
N#C/C(=C\c1ccc(O)c(O)c1)C(=O)NCc1ccccc1	98.8%
c1ccc(-c2cnc(Nc3ccc(OCCN4CCCC4)cc3)s2)cc1	22.6%
COc1cc2ncnc(Nc3ccc(O)c(Br)c3)c2cc1OC	83.4%
CCN(CC)CCNC(=O)c1c(C)[nH]c(/C=C2\C(=O)Nc3ccc(Cl)cc32)c1C	1.87%

Series 2 — cell line: HaCaT; concentration: 100 µM; time: 18 h
Structure (SMILES)	viability [%]
CCOC(=O)N[C@@H]1CC[C@@H]2[C@@H](C1)C[C@H]1C(=O)O[C@H](C)[C@H]1[C@H]2/C=C/c1ccc(-c2cccc(F)c2)cn1	98.3
COc1nc2ccc(Br)cc2cc1[C@@H](c1ccccc1)[C@@](O)(CCN(C)C)c1cccc2ccccc12	40.8
COc1cc(C(=O)NS(=O)(=O)c2ccccc2C)ccc1Cc1cn(C)c2ccc(NC(=O)OC3CCCC3)cc12	55.7
CCN[C@H]1CN(CCCOC)S(=O)(=O)c2sc(S(N)(=O)=O)cc21	96.5
N[C@@H](Cc1c[nH]c2ccc(O)cc12)C(=O)O	111
CNCC(O)c1ccc(OC(=O)C(C)(C)C)c(OC(=O)C(C)(C)C)c1 (stereo not shown)	87.1

Series 3 — observed: cell-free assay; technique: competition with immobilised ligand; concentration: 1 µM
Compound: CC(=O)C1=C(C)N(c2cccc(C(F)(F)F)c2)C(=O)N[C@@H]1c1ccc(C#N)nc1
target	remaining binding [%]
Tyrosine-protein kinase ABL1, phosphorylated (ABL1, Homo sapiens, UniProt P00519, Q252H)	94.3
Tyrosine-protein kinase ABL1, non-phosphorylated (ABL1, Homo sapiens, UniProt P00519, H396P)	87.1
PIK3CA (Homo sapiens, UniProt P42336, H1047Y)	87.6
Tyrosine-protein kinase ABL1, non-phosphorylated (ABL1, Homo sapiens, UniProt P00519)	96.5
CLK4 (Homo sapiens, UniProt Q9HAZ1)	88.3
FGFR4 (Homo sapiens, UniProt P22455)	100
CLK1 (Homo sapiens, UniProt P49759)	100
MAP4K5 (Homo sapiens, UniProt Q9Y4K4)	100
CIT (Homo sapiens, UniProt O14578)	77.6
MET (Homo sapiens, UniProt P08581)	98.1
PIK3C2B (Homo sapiens, UniProt O00750)	100
TAOK1 (Homo sapiens, UniProt Q7L7X3)	100
DYRK1A (Homo sapiens, UniProt Q13627)	100
KIT (Homo sapiens, UniProt P10721, V559D/V654A)	100
FGFR2 (Homo sapiens, UniProt P21802)	100
PIK3CD (Homo sapiens, UniProt O00329)	89.8

Single results of other studies
Structure (SMILES)	host	medium	route	dose	quantity	value
O=C1CCC(N2Cc3cc(C4CCN(Cc5ccccc5)CC4)ccc3C2=O)C(=O)N1 (stereo not shown)	male ICR mice	plasma	intravenous	1.0 mg/kg	volume of distribution (Vz)	13 L/kg and 13.4 L/kg

Some of these lines once more (series 3):
target	remaining binding [%]
MET (Homo sapiens, UniProt P08581)	98.1
PIK3C2B (Homo sapiens, UniProt O00750)	100
TAOK1 (Homo sapiens, UniProt Q7L7X3)	100
DYRK1A (Homo sapiens, UniProt Q13627)	100
KIT (Homo sapiens, UniProt P10721, V559D/V654A)	100
FGFR2 (Homo sapiens, UniProt P21802)	100
PIK3CD (Homo sapiens, UniProt O00329)	89.8
